Measured values of several laboratories.
A part holds a random share of what one study measured.

Study 1
Target: Sal-like protein 4, full length isoform A (SALL4, Homo sapiens, UniProt Q9UJQ4, residues 1-1053)
Sequence of UniProt Q9UJQ4 (whole entry, looked up): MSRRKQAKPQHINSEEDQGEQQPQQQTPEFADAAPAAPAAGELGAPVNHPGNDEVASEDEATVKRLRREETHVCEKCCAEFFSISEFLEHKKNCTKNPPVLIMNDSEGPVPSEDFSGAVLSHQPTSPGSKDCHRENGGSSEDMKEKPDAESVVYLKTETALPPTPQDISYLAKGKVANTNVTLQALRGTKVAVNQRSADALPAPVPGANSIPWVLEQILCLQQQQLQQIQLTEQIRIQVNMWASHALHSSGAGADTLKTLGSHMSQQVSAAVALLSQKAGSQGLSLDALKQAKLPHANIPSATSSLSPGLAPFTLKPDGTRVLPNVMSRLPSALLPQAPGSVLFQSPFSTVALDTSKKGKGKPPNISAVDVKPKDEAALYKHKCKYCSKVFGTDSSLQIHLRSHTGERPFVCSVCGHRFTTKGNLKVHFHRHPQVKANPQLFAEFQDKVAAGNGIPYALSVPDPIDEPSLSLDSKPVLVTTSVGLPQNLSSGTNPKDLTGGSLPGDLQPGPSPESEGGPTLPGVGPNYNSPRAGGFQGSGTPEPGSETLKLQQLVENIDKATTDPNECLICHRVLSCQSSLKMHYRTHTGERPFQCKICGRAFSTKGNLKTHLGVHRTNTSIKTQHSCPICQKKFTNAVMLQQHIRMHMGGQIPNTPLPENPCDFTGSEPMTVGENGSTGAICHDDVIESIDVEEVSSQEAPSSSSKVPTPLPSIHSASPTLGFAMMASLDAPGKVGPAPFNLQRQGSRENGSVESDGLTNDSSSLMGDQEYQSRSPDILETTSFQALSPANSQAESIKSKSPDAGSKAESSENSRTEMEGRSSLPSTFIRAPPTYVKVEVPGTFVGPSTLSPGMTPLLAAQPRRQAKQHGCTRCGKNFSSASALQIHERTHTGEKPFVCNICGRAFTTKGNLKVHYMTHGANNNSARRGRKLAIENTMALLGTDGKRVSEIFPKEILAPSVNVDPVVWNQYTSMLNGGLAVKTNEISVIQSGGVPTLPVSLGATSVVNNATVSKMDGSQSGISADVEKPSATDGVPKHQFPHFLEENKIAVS
Method: universal PBM
Molecule type: double-stranded DNA, one strand shown
Matrix: in vitro
Concentration: 600 nM
Notes: 8-mer, flanks averaged, mean of replicates
Direction: higher = stronger binding
Endpoint: E-score
AAAGGGAC: -0.135
GAATATGC: 0.223
AGGCACCT: -0.324
ATGTCGAA: 0.0321
CAGGAGCG: -0.146

Study 2
Target: Histone acetyltransferase KAT6A, both winged helices, GST fusion (KAT6A, Homo sapiens, UniProt Q92794, residues 1-181)
Method: protein binding microarray
Molecule type: double-stranded DNA, one strand shown
Matrix: in vitro
Concentration: not given
Notes: 8-mer, flanks averaged, mean of 2 arrays, mostly near background
Baseline: not given
Direction: higher = stronger binding
Endpoint: E-score
Construct (chain): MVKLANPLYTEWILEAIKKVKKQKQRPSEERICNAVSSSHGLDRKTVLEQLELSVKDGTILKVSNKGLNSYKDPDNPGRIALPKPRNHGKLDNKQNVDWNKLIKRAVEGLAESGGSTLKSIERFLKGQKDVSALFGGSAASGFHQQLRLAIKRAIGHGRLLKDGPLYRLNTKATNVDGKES
CTCATACA: 0.0229
AAAGCTTT: 0.276
AACAGAGC: -0.0425
CCAAGCGC: 0.258
GAGTTATA: -0.164

Study 3
Target: Interferon regulatory factor 7, full length, phosphomimetic (IRF7, Homo sapiens, UniProt Q92985, residues 1-503, S471D/S472D/S475D/S476D/S477D/S483D/S484D/S487D)
Sequence of UniProt Q92985 (whole entry, unmodified, looked up): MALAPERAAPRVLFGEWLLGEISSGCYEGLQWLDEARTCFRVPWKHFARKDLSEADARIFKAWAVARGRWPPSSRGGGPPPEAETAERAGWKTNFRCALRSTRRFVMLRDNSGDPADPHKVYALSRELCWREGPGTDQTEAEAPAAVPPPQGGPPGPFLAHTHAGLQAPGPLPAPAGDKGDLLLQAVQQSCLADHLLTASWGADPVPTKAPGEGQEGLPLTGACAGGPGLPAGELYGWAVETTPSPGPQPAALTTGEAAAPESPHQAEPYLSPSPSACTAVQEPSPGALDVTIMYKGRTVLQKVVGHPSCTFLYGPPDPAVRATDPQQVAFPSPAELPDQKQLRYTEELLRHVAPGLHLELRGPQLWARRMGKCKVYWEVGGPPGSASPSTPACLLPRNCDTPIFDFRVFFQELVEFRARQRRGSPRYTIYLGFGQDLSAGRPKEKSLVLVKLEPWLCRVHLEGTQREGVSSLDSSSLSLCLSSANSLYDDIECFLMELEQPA
Method: protein-binding microarray
Molecule type: double-stranded DNA, one strand shown
Matrix: in vitro
Concentration: 2200 nM top
Notes: 60-bp whole probe
With: salmon DNA 0.4 mg/ml
Baseline: random background probes
Direction: higher = stronger binding
Endpoint: fitted relative affinity
Constant ends, left off below: GCCTAGCAC … GTCTTGATTCGCTTGACGCTGCTG
GACGGACTGGGACTGGGGGCGTGCTAG: -0.205 z-score
GACGATTTCAGTTTCGAGATGTGCTAG: 6.05 z-score
TTAGATTTCAGACGGGATTAGTGCTAG: -0.186 z-score
GATGGTATCGGGTATCGGGACGTGCTA: -0.0904 z-score
TTAGATCTCAGTTTCGCTTAGTGCTAG: 5.47 z-score

Mixed results
PhoQ, residues 284 288 289 292 302 303 NLMGRA
fold induction (PhoP, residues 12 14 15 18 19 SQCLL (Escherichia coli, UniProt P23836); Sort-seq, measured: YFP reporter; E. coli; PhoQ-PhoP variant library, with: 10 µM Mg2+; baseline: high Mg2+ state, higher = stronger signaling): 12.8

A few entries again (study 2):
AAAGCTTT: 0.276
